Measurements of several laboratories.
Numbered parts are unrelated; each lists some results of a single study. Changes are numbered by the printed parent chain.
Sequence of UniProt P28335 (whole entry, looked up): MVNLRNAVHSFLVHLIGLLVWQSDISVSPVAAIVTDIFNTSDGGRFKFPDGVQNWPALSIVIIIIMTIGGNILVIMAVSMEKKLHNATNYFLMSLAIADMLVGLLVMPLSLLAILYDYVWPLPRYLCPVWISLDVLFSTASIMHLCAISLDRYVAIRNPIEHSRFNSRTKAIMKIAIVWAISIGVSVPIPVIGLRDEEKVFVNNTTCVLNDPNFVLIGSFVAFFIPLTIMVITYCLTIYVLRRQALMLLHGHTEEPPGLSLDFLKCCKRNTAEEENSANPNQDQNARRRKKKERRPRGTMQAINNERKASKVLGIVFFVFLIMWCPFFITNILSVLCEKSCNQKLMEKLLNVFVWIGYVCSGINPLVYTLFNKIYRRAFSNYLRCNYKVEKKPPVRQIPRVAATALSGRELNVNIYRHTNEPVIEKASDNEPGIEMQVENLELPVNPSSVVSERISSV

Sample 1 — technique: Spec-seq; molecule type: double-stranded DNA, one strand shown; sample: in vitro; concentration: not given; setting: whole probe, mean of replicates; relative to: not given; direction: lower = stronger binding; shared flanks, not repeated: GAGTCGTCTCGTCAGCAC … CCGTAGAGCACTCAGGTC
Target: Transcription factor SOX-2, HMG box (Sox2, Mus musculus, UniProt P48432, residues 41-119)
Sequence of UniProt P48432 (41-119, looked up): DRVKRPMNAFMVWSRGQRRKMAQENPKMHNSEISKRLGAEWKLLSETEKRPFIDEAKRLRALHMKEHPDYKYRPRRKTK
| Sequence | relative binding energy |
| --- | --- |
| ACGTGTT | 0.369 ln ratio |
| CATTTAG | -0.53 ln ratio |
| CATGAAA | -0.0357 ln ratio |
| GATCGTT | 1.05 ln ratio |
| CATCCAG | 0.392 ln ratio |
| CACGGTT | 0.86 ln ratio |
| CGAAGTT | 1.15 ln ratio |
| CATCGAT | 0.574 ln ratio |

Sample 2 — observed: peptide-MHC binding; molecule type: peptide; concentration: concentration not given
Target: HLA class I histocompatibility antigen, C alpha chain, allele C*04:01 (Homo sapiens, UniProt P10321)
| Molecule | binding |
| --- | --- |
| KVADVDLAVPV | inactive |
| MAAVRTTAL | inactive |
| IIMRRFFYF | inactive |
| AEFVFSCGI | inactive |
| YVLNGYTEF | inactive |
| KYFIPVIEI | inactive |
| YMMDDLEL | inactive |
| YMRERLSDF | inactive |
| YVILVGAAF | inactive |
| YSLMSRYQF | inactive |
| AQIGIFAPV | inactive |

Sample 3 — target: CCNB2, cyclin fold, Cln2 fusion (human); technique: yeast growth competition, sequencing; sample: yeast; setting: weak parent motif; relative to: not given; direction: higher = stronger binding; starting sequence: viral docking peptide; KGVKRKLFAEDSS
| Variant | normalised enrichment score |
| --- | --- |
| KGVKRKLFAMDSS [E10M] | 0.713 |
| KGVKRKLDAEDSS [F8D] | 0.104 |
| KGVKRKLFAESSS [D11S] | 1.16 |
| KGFKRKLFAEDSS [V3F] | 0.255 |
| KGAKRKLFAEDSS [V3A] | 0.408 |
| KGVKRKLFATDSS [E10T] | 0.749 |
| KGVKRKLFAWDSS [E10W] | 0.87 |
| KGVKWKLFAEDSS [R5W] | 0.274 |
| KLVKRKLFAEDSS [G2L] | 0.441 |
| KGVKQKLFAEDSS [R5Q] | 0.666 |
| KGVKRGLFAEDSS [K6G] | 0.201 |
| KGVKRKLFREDSS [A9R] | 1.18 |
| KGVKRKLFAEDTS [S12T] | 1.22 |
| KGVKRKLFAEWSS [D11W] | 1.16 |
| KGVSRKLFAEDSS [K4S] | 0.537 |
| KGVKRKLFTEDSS [A9T] | 0.759 |
| KHVKRKLFAEDSS [G2H] | 0.603 |
| KGVKRKLFADDSS [E10D] | 1.35 |
| KGVFRKLFAEDSS [K4F] | 0.364 |
| KGVKRKLFQEDSS [A9Q] | 1.07 |
| KGVKRKLFANDSS [E10N] | 0.63 |
| KSVKRKLFAEDSS [G2S] | 0.866 |
| KGVKRKLFALDSS [E10L] | 0.574 |
| KGVKVKLFAEDSS [R5V] | 0.374 |
| KGVKRKLFAVDSS [E10V] | 0.515 |

Sample 4 — technique: protein-binding microarray; molecule type: double-stranded DNA, one strand shown; sample: in vitro; concentration: 940 nM top; setting: 60-bp whole probe; added: salmon DNA 0.4 mg/ml; relative to: random background probes; direction: higher = stronger binding; shared flanks, not repeated: GCCTAGCAC … GTCTTGATTCGCTTGACGCTGCTG
Target: Interferon regulatory factor 5, full length, phosphomimetic (IRF5, Homo sapiens, UniProt Q13568-2, residues 1-514, S451D/S453D/S456D/S462D)
| Sequence | fitted relative affinity [z-score] |
| --- | --- |
| TTAGGTTTCGGTATTGGTTAGTGCTAG | 13.2 |
| TTAGGTTACGACACTGGGTTAGTGCTA | 0.117 |
| TTAGGACTGGGGACTGGATTAGTGCTA | -0.0229 |
| ATGGCTTTGCAGATAAATATGTGCTAG | -0.542 |
| GACGAACTGCGGACTGGAGACGTGCTA | -0.556 |
| GACGATATCGGATTTCGAGACGTGCTA | -0.161 |
| TTAGGTTTCGACACTGGGTTCGTGCTA | 8.56 |
| TTAGGTATCCTACTGTTTTAGTGCTAG | 0.0138 |

Mixed results — PNN: PNN (Homo sapiens, UniProt Q9H307)
| Molecule | target or system | assay | system | conditions | endpoint | value |
| --- | --- | --- | --- | --- | --- | --- |
| EIF4A3 (Homo sapiens, UniProt P38919) | PNN | cross-linking MS | – | hits only | interaction screen | cross-linked |
| CN([C@@H]1CCc2c(CC(=O)O)c3cc(S(C)(=O)=O)ccc3n2C1)S(=O)(=O)c1ccc(F)cc1 | 5-hydroxytryptamine receptor 2C (HTR2C, Homo sapiens, UniProt P28335) | binding, radioligand binding | – | 10 µM | inhibition | 0.933% |
| UQCRQ (Homo sapiens, UniProt O14949) | UQCRC2 (Homo sapiens, UniProt P22695) | cross-linking MS | – | hits only | interaction screen | cross-linked |
| SAP18 (Homo sapiens, UniProt O00422) | PNN | cross-linking MS | – | hits only | interaction screen | cross-linked |
| DDX39B (Homo sapiens, UniProt Q13838) | CCDC146 (Homo sapiens, UniProt Q8IYE0) | cross-linking MS | cell fractions | added: DMTMM | cross-linked residues | K155 to E286 |

Some of these lines once more (sample 2):
| Molecule | binding |
| --- | --- |
| AEFVFSCGI | inactive |
| YMMDDLEL | inactive |
| YMRERLSDF | inactive |
| YVLNGYTEF | inactive |
| MAAVRTTAL | inactive |
| KVADVDLAVPV | inactive |
| IIMRRFFYF | inactive |
| YSLMSRYQF | inactive |
| AQIGIFAPV | inactive |
